Published values of several laboratories.
Numbers after ± are the reported error.
ipgm-1: ipgm-1 (Brugia malayi, UniProt Q4VWF8)
UniProt Q4VWF8, sequence (whole entry, looked up): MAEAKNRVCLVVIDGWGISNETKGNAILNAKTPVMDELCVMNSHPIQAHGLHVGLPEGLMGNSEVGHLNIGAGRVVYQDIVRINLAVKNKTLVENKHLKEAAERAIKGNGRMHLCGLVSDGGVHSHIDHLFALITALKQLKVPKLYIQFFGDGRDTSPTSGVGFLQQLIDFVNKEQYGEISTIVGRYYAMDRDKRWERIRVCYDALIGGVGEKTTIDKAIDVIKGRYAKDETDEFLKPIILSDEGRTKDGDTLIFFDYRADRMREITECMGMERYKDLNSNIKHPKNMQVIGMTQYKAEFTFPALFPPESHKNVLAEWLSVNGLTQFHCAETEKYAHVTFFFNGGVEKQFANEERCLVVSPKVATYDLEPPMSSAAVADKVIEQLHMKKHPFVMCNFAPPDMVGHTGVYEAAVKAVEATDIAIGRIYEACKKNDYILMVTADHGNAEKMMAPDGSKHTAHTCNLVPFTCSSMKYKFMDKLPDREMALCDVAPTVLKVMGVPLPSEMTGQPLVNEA
gpmI: gpmI (Escherichia coli, UniProt P37689)
UniProt P37689, sequence (whole entry, looked up): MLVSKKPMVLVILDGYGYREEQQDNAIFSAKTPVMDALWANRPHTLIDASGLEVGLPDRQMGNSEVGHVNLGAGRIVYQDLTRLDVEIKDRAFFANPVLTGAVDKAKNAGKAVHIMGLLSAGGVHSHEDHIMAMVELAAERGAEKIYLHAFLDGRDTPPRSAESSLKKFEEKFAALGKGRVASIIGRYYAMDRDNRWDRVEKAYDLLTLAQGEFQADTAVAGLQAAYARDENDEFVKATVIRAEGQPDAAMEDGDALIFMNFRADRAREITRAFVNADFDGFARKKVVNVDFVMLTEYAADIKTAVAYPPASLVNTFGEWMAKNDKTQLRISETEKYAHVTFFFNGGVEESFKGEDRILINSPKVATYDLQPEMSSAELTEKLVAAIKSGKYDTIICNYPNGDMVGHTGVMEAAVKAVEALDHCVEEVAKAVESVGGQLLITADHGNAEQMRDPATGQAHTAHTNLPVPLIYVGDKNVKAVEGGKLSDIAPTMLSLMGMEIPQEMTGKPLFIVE
UniProt P05177, sequence (whole entry, looked up): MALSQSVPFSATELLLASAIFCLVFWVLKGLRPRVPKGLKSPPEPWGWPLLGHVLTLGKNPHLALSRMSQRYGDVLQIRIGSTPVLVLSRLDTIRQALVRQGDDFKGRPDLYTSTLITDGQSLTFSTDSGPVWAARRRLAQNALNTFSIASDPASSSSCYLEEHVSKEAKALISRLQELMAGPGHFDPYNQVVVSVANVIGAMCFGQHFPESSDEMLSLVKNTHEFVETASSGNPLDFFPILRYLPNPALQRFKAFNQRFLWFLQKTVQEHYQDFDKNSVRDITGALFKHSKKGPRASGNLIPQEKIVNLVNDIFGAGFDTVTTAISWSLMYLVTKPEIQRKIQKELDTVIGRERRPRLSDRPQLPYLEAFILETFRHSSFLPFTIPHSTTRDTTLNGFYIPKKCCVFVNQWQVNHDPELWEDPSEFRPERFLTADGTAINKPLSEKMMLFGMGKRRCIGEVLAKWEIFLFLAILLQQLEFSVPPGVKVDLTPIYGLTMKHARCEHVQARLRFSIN
UniProt P29317, sequence (whole entry, looked up): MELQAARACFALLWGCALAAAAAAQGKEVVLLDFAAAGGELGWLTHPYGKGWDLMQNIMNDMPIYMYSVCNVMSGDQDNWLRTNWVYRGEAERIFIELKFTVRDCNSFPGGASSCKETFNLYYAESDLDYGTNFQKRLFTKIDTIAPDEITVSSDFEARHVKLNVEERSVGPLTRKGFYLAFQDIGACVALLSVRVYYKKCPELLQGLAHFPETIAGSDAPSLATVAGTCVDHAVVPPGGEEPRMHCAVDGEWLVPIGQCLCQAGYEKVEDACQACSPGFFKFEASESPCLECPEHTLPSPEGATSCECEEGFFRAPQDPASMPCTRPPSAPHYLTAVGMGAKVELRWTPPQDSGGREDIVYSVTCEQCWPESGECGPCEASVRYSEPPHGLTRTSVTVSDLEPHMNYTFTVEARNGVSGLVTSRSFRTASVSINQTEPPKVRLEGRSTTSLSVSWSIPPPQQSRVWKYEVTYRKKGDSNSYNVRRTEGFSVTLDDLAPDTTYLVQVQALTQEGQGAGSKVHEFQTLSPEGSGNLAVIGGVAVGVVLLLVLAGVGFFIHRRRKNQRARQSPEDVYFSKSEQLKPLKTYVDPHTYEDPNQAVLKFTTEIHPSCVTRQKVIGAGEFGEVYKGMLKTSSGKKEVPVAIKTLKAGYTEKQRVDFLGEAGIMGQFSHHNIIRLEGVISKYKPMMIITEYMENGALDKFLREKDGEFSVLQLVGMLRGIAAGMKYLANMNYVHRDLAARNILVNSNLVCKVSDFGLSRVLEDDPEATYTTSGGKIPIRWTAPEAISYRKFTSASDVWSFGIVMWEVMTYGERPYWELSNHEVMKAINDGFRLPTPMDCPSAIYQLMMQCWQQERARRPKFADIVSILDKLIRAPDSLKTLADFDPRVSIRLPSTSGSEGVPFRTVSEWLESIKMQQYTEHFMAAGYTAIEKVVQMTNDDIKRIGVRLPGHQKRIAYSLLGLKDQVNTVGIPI
UniProt P48546, sequence (whole entry, looked up): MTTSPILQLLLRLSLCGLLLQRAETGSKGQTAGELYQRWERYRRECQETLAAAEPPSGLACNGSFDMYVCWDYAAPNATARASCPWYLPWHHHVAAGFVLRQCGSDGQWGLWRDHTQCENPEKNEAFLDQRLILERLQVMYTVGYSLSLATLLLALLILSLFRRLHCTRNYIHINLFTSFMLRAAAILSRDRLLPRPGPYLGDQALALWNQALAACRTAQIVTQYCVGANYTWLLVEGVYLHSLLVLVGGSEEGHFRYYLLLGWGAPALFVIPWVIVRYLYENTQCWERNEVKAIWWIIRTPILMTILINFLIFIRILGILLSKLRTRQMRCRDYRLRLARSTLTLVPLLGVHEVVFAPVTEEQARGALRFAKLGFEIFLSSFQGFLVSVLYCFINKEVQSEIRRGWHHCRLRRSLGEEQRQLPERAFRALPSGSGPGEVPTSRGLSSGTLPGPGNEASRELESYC
UniProt P23977, sequence (whole entry, looked up): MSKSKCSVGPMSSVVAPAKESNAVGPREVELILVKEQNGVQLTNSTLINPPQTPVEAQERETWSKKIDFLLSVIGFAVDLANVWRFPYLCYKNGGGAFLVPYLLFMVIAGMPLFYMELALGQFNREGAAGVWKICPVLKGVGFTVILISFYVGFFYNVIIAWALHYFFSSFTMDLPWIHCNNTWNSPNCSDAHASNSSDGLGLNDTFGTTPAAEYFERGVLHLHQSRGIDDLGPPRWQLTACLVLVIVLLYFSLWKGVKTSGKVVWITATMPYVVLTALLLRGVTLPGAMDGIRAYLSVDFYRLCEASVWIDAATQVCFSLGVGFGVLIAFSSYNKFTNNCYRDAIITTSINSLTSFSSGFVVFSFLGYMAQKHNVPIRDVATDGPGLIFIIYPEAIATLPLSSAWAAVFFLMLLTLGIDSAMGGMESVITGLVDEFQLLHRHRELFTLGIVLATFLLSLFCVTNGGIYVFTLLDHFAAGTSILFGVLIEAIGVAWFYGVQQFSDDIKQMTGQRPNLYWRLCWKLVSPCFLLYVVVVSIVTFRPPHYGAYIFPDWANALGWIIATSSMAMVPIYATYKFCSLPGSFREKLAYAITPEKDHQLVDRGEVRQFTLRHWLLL
UniProt P41144, sequence (whole entry, looked up): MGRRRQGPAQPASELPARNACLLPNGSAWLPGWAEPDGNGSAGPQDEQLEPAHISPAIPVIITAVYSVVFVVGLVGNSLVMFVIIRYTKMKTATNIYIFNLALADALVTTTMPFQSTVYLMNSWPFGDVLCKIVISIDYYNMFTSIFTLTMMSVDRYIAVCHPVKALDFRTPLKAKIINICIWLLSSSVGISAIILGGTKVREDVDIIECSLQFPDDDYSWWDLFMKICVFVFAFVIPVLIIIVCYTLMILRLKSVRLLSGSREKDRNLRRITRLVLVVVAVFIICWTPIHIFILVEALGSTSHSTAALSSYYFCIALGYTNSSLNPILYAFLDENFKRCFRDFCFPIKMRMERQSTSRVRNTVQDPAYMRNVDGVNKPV
UniProt P21554, sequence (whole entry, unmodified, looked up): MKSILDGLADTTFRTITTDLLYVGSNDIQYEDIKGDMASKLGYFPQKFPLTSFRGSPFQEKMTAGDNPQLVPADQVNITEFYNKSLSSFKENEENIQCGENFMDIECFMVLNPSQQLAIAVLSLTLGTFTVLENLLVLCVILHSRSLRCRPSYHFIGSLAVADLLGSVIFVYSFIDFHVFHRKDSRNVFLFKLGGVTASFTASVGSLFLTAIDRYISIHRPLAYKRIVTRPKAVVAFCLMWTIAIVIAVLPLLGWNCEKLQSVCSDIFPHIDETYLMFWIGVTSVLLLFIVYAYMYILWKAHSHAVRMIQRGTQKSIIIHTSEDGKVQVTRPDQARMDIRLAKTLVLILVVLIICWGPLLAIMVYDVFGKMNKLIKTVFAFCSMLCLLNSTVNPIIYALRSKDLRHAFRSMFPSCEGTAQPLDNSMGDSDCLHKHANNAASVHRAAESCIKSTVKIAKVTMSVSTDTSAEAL

SMILES	target or system	test	test system	setting	how to read	endpoint	value
CCCCCn1cc(C(=O)c2cccc3c2CC(C)(C)C3)c2ccccc21	CNR1 (Homo sapiens, UniProt P21554, I267L/L193I/L359V)	Gαi1 engagement, agonist, BRET				EC50	0.0275 µM
CCC[C@@H](C(=O)c1ccccc1)N1CCCC1	Slc6a3 (Rattus norvegicus, UniProt P23977)	transporter uptake, inhibitor, radiometric				IC50	0.0069 µM
CC(=O)N[C@H]1[C@@H](OC[C@H](NC(=O)CNC(=O)[C@@H]2CCCN2C(=O)[C@H](C)NC(=O)[C@@H]2CCCN2C(=O)[C@@H](N)CCCNC(=N)N)C(=O)N[C@H](C(=O)N[C@@H](C)C(=O)N2CCC[C@H]2C(=O)N2CCC[C@H]2C(=O)N[C@@H](C)C(=O)N[C@@H](Cc2c[nH]cn2)C(=O)NCC(=O)O)[C@@H](C)O)O[C@H](CO)[C@H](O)[C@@H]1O	anti-MUC1 Fab 16 A R32G mutant, murine	SPR			baseline: peptide KD over Glyco-S KD	KD ratio	~1.9 fold
CNC(=O)C1CCN(c2ccccc2NC(=O)c2ccc(-c3cc(O)ccc3C)c(C)n2)CC1	EPHA2 (Homo sapiens, UniProt P29317)	enzyme activity, inhibitor				Ki	0.00013 µM
Cc1cc(O)cc(C)c1C[C@@H]1NC(=O)[C@H](CCCCN)NC(=O)[C@H](Cc2ccccc2)NC(=O)[C@@H](CCCCNC(=N)N)NC1=O	OPRK1 (Cavia porcellus, UniProt P41144)	antagonist				Kb	0.0254 ± 0.0051 µM
CCCC[C@H]1C(=O)N2CCC[C@H]2C(=O)N[C@H](C(N)=O)CSCC(=O)N[C@@H](Cc2ccc(O)cc2)C(=O)N(C)[C@@H](Cc2ccc(OC)cc2)C(=O)N[C@@H](CCCNC(=N)N)C(=O)N(C)[C@@H](Cc2ccccc2)C(=O)N[C@@H](CC(=O)O)C(=O)N(C)[C@@H](CO)C(=O)N(C)[C@@H](Cc2ccc(O)cc2)C(=O)N[C@@H](CCC(N)=O)C(=O)N[C@@H](CO)C(=O)N(C)[C@@H](CO)C(=O)N(C)[C@@H](Cc2ccc(OC)cc2)C(=O)N[C@@H](C(C)C)C(=O)N(C)[C@@H](Cc2ccc(O)cc2)C(=O)N1C	ipgm-1	enzyme activity, inhibitor, luminescent coupled-enzyme ATP				AC50	6.17 µM
CC[C@H](C)[C@H](NC(=O)[C@H](CO)NC(=O)[C@H](Cc1ccc(O)cc1)NC(=O)[C@H](CC(=O)O)NC(=O)[C@H](CO)NC(=O)[C@@H](NC(=O)[C@H](Cc1ccccc1)NC(=O)[C@@H](NC(=O)CNC(=O)[C@@H](N)CCC(=O)O)[C@@H](C)O)[C@@H](C)CC)C(=O)N[C@@H](C)C(=O)N[C@@H](CCSC)C(=O)N[C@@H](CC(=O)O)C(=O)N[C@@H](CCCCN)C(=O)N[C@H](C(=O)N[C@@H](Cc1c[nH]cn1)C(=O)N[C@@H](CCC(N)=O)C(=O)N[C@@H](CCC(N)=O)C(=O)N[C@@H](CC(=O)O)C(=O)N[C@@H](Cc1ccccc1)C(=O)N[C@H](C(=O)N[C@@H](CC(N)=O)C(=O)N[C@@H](Cc1c[nH]c2ccccc12)C(=O)N[C@@H](CC(C)C)C(=O)N[C@@H](CC(C)C)C(=O)N[C@@H](C)C(=O)N[C@@H](CCC(N)=O)C(=O)N[C@@H](CCCCN)C(N)=O)C(C)C)[C@@H](C)CC	GIPR (Homo sapiens, UniProt P48546)	antagonist, Schild analysis, measured: cAMP	COS-7 transfected	10 min preincubation, added: GIP(1-42)		Ki	0.0149 µM
CC(C)[C@@H]1NC(=O)[C@H](CCCNC(=N)N)NC(=O)[C@H](Cc2ccc(O)cc2)NC(=O)[C@H](CO)NC(=O)[C@H](Cc2ccc(O)cc2)N(C)C(=O)[C@H](CC(N)=O)NC(=O)CNC(=O)[C@H](Cc2ccc(O)cc2)N(C)C(=O)[C@H](Cc2ccccc2)N(C)C(=O)[C@H](CC(=O)O)NC(=O)[C@H](Cc2ccc(O)cc2)NC(=O)[C@H](Cc2ccccc2)N(C)C(=O)[C@H](Cc2ccc(O)cc2)N(C)C(=O)[C@H](Cc2ccc(O)cc2)NC(=O)CSC[C@@H](C(N)=O)NC(=O)[C@@H]2CCCN2C1=O	gpmI	enzyme activity, inhibitor, luminescent coupled-enzyme ATP		15 min, 37 °C		AC50	4.37 µM
CC(C)OC(=O)C(n1cccn1)n1cccn1.F[P-](F)(F)(F)(F)F.[Cu+].c1ccc(P(c2ccccc2)c2ccccc2)cc1	LoVo	cell growth or viability		3D culture		IC50	20.4 µM
CN1C(=O)[C@H](Cc2ccc(O)cc2)NC(=O)CNC(=O)[C@H](Cc2ccc(O)cc2)NC(=O)[C@H](CCC(=O)O)NC(=O)[C@H](Cc2ccc(O)cc2)N(C)C(=O)[C@H](Cc2ccc(O)cc2)N(C)C(=O)[C@H](CCC(N)=O)NC(=O)[C@H](Cc2c[nH]c3ccccc23)NC(=O)[C@H](Cc2ccc(O)cc2)NC(=O)[C@@H](Cc2ccc(O)cc2)NC(=O)CSC[C@@H](C(N)=O)NC(=O)[C@H](CCCCN)NC(=O)[C@@H]1Cc1ccc(O)cc1	ipgm-1	enzyme activity, inhibitor, luminescent coupled-enzyme ATP				AC50	3.63 µM
CCCCCc1cc(O)c2c(c1)OC(C)(C)C1CCC(C)=CC21 (single isomer, unassigned; (-))	Cytochrome P450 1A2 (CYP1A2, Homo sapiens, UniProt P05177)	inhibitor	HEK cell microsomes	30 min preincubation with NADPH		IC50	1.8 ± 0.55 µM
COc1ccc(C[C@H]2C(=O)N[C@@H](Cc3ccc(O)cc3)C(=O)N3CCC[C@H]3C(=O)NCC(=O)N[C@@H]([C@@H](C)O)C(=O)N[C@@H](C)C(=O)N[C@@H](CCC(N)=O)C(=O)N(C)[C@@H](Cc3ccc(O)cc3)C(=O)N[C@@H]([C@@H](C)O)C(=O)N[C@H](C(N)=O)CSCC(=O)N[C@H](Cc3ccc(O)cc3)C(=O)N[C@@H](Cc3c[nH]c4ccccc34)C(=O)N(C)[C@@H](Cc3ccc(O)cc3)C(=O)N[C@@H](CC(=O)O)C(=O)N(C)[C@@H](CO)C(=O)N(C)[C@@H](Cc3ccc(O)cc3)C(=O)N2C)cc1	ipgm-1	enzyme activity, inhibitor, luminescent coupled-enzyme ATP				AC50	34.7 µM
CC[C@H](C)[C@H](NC(C)=O)C(=O)N[C@@H](CC(N)=O)C(=O)N[C@@H](Cc1c[nH]c2ccccc12)C(=O)N[C@@H](Cc1c[nH]cn1)C(=O)N[C@@H](C)C(=O)N[C@H](C(=O)N[C@@H](C)C(=O)N[C@@H](Cc1c[nH]cn1)C(=O)N[C@@H](CCSC)C(=O)N[C@@H](C)C(=O)N[C@@H](CCCCN)C(=O)N[C@@H](CCCCN)C(=O)N[C@@H](CC(C)C)C(=O)N[C@@H](CC(C)C)C(N)=O)[C@@H](C)CC	human erythrocytes	binding, hemolysis-monitored titration		pH 7.0, added: Ni(II)		Kd	12 µM
COc1ccc(C[C@H]2C(=O)N[C@@H](CC(N)=O)C(=O)N[C@@H](CC(=O)O)C(=O)N[C@@H](CO)C(=O)NCC(=O)N[C@@H](Cc3c[nH]c4ccccc34)C(=O)N(C)[C@@H](Cc3ccc(O)cc3)C(=O)N[C@@H](CC(N)=O)C(=O)N[C@@H]([C@@H](C)O)C(=O)N(C)[C@@H](Cc3ccccc3)C(=O)N[C@H](C(N)=O)CSCC(=O)N[C@@H](Cc3ccc(O)cc3)C(=O)N2C)cc1	gpmI	enzyme activity, inhibitor, luminescent coupled-enzyme ATP		15 min, 37 °C		AC50	6.92 µM
Cc1cc(C)n(C(C(=O)OC(C)C)n2nc(C)cc2C)n1.F[P-](F)(F)(F)(F)F.[Cu+].c1ccc(P(c2ccccc2)c2ccccc2)cc1	LoVo	cell growth or viability		3D culture		IC50	16.6 µM
